{"data": "Results of several laboratories", "note": "Protocols differ between the studies behind these lines. ± marks the error that the study gave."}
{"Structure (SMILES)": "Cn1cc(-c2cccc(CN3CCC4(CC3)COc3c4ccc4c3CN([C@H]3CCC(=O)NC3=O)C4=O)c2)cn1", "test system": "mouse Crbn I391V, spleen", "conditions": "oral, 10 mg/kg, 6 h", "measurement": "tissue concentration", "result": "186 ng/g"}
{"Structure (SMILES)": "CN[C@](C)(C[18F])C(=O)O", "test system": "SCID mouse SK-OV-3 xenograft, spleen", "conditions": "30 min, post injection", "measurement": "tissue uptake", "result": "9.3 ± 1.2 %ID/g"}
{"Structure (SMILES)": "C[S]1CC[S]2CC[P](CO)(CO)[99Tc+]12.[C-]#[O+].[C-]#[O+].[C-]#[O+]", "test system": "female CF-1 mouse, small intestine", "conditions": "intravenous, 1 h", "measurement": "tissue uptake", "result": "13.5 %ID/g"}
{"Structure (SMILES)": "N=C(N)NCc1ccc(C(=O)NCCCC[C@H](NC(=O)CCCCCCC(=O)NCCCC[C@H](NC(=O)N[C@@H](CCC(=O)O)C(=O)O)C(=O)O)C(=O)O)cc1[131I]", "test system": "SCID mouse, PC-3 xenografts, lungs", "conditions": "2 h", "measurement": "tissue uptake", "result": "0.81 ± 0.37 %ID/g"}
{"Structure (SMILES)": "C=Cc1cc(O)cc2nc(-c3ccc(O)c([76Br])c3)oc12", "test system": "female C57BL/6 mouse, spleen", "conditions": "6 h, high dose", "measurement": "tissue uptake", "result": "0.03 %ID/g"}
{"Structure (SMILES)": "N=C(N)NCc1ccc(C(=O)NCCCC[C@H](NC(=O)N[C@@H](CCC(=O)O)C(=O)O)C(=O)O)cc1[131I]", "test system": "SCID mouse, PC-3 xenografts, brain", "conditions": "21 h", "measurement": "tissue uptake", "result": "0.03 ± 0.01 %ID/g"}
{"Structure (SMILES)": "COC(=O)C[C@](O)(CCCC(C)(C)OC(C)=O)C(=O)O[C@@H]1C(OC)=C[C@]23CCCN2CCc2cc4c(cc2[C@H]13)OCO4", "test system": "CD1 mouse, stomach", "conditions": "subcutaneous, 1 mg/kg, 2 h", "measurement": "tissue concentration", "result": "97.8 ng/mL"}
{"Structure (SMILES)": "CCCCCCCC(=O)NCCCC[C@H](NC(=O)[C@H](Cc1ccccc1)NC(=O)[C@@H](CCCNC(=N)N)NC(=O)[C@@H](N)Cc1ccc(O)cc1)C(N)=O", "test system": "CD-1 mouse, male, liver", "conditions": "intravenous, 3 mg/kg, 180 min", "measurement": "tissue concentration", "result": "563 ± 107 ng/g"}
{"Structure (SMILES)": "N=C(N)NCc1ccc(C(=O)NCCCC[C@H](NC(=O)N[C@@H](CCC(=O)O)C(=O)O)C(=O)O)cc1[211At]", "test system": "SCID mouse, PC-3 xenografts, stomach", "conditions": "14 h", "measurement": "tissue uptake", "result": "2.24 ± 1.08 %ID/g"}
{"note": "For quick reference, copied from above:"}
{"Structure (SMILES)": "CCCCCCCC(=O)NCCCC[C@H](NC(=O)[C@H](Cc1ccccc1)NC(=O)[C@@H](CCCNC(=N)N)NC(=O)[C@@H](N)Cc1ccc(O)cc1)C(N)=O", "test system": "CD-1 mouse, male, liver", "conditions": "intravenous, 3 mg/kg, 180 min", "measurement": "tissue concentration", "result": "563 ± 107 ng/g"}
